Measured values of several laboratories.
Parts stem from different laboratories: compare values within a part only.
Sequence of UniProt Q9NRM7 (whole entry, looked up): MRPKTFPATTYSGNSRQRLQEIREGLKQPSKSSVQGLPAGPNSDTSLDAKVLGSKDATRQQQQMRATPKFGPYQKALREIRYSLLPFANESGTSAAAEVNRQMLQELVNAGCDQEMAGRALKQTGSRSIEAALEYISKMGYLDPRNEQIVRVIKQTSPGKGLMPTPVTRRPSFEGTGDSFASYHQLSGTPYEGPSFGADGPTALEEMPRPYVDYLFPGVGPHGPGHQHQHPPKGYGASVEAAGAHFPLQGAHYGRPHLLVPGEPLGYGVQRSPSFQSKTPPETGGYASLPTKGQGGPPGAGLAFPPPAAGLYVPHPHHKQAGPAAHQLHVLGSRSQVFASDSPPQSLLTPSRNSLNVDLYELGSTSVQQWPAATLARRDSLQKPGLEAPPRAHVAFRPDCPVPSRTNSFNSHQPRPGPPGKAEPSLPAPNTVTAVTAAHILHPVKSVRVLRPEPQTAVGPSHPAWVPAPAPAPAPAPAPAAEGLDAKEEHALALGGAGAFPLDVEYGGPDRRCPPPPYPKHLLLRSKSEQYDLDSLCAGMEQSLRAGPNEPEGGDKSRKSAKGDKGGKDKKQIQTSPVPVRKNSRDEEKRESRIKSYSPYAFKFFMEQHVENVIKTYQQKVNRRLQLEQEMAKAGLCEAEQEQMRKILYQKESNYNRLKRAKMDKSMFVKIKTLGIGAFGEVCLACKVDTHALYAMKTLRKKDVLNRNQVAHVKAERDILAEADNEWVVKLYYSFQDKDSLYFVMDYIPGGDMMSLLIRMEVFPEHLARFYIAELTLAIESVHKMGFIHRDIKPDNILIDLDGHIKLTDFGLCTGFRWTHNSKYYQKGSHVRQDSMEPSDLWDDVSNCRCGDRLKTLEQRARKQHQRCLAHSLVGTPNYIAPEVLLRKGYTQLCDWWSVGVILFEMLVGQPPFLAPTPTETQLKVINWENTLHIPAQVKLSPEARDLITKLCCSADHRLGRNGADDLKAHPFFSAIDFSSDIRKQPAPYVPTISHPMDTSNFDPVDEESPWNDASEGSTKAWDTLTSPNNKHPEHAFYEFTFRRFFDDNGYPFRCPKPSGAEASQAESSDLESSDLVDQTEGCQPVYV
Sequence of UniProt P78362 (whole entry, looked up): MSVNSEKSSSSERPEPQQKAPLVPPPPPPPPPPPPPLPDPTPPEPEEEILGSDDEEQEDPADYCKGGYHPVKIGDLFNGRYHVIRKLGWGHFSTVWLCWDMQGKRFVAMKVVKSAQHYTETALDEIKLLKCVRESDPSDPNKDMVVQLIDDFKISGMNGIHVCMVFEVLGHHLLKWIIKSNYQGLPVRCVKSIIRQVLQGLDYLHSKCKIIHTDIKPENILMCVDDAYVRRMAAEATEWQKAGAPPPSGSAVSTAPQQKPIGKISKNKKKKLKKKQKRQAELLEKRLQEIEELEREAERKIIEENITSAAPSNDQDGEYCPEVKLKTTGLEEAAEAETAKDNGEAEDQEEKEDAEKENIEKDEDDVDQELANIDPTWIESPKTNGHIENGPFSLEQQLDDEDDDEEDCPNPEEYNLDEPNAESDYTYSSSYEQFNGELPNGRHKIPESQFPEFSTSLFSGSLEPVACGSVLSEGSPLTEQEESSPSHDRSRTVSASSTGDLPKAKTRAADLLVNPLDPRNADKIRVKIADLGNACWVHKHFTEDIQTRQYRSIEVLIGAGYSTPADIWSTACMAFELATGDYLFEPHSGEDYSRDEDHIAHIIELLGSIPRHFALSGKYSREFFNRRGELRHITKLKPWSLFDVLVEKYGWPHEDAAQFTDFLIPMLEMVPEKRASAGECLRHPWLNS
Sequence of UniProt Q9Y5S2 (whole entry, looked up): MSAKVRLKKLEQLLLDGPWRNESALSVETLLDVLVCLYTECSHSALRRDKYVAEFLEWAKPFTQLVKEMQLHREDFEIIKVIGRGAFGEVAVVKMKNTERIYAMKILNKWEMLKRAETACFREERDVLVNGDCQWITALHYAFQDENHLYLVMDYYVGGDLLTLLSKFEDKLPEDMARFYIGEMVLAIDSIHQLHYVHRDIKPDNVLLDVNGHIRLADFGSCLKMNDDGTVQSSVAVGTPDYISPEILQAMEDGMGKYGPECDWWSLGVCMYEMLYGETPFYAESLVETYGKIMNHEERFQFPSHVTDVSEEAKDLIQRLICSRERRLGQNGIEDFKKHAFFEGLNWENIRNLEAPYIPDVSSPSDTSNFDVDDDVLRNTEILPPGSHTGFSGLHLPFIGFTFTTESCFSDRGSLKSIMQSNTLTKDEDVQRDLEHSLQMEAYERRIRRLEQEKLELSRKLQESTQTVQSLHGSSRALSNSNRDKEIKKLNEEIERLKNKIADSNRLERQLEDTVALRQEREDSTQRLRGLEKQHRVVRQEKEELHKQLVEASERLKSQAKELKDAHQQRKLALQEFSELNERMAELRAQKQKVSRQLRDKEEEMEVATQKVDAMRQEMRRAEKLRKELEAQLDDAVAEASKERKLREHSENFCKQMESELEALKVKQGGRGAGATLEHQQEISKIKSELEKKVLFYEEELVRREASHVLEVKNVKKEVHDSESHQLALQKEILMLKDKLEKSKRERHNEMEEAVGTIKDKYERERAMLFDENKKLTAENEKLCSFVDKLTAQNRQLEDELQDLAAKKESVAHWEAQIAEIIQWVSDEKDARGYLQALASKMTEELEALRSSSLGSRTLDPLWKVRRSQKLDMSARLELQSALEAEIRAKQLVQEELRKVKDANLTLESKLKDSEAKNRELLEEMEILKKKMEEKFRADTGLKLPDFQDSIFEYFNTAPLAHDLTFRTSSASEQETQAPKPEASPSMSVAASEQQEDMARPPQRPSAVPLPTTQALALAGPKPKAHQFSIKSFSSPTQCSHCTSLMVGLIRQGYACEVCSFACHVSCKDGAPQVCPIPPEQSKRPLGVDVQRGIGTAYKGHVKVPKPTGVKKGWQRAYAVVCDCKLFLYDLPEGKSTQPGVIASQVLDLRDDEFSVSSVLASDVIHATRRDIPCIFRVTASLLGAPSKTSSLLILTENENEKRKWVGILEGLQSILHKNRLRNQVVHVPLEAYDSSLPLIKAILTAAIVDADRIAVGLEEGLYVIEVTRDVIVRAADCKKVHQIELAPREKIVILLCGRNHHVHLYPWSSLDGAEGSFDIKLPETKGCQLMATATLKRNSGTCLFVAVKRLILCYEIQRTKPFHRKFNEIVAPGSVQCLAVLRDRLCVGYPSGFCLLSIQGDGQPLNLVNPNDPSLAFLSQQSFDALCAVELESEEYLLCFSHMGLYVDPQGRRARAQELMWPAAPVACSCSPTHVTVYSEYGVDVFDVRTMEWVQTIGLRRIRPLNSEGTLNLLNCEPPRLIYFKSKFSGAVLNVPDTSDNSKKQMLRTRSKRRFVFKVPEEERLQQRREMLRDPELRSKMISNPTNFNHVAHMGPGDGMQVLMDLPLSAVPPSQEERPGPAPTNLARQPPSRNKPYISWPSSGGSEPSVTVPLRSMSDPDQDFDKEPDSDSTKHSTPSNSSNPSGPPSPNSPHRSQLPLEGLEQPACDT
Sequence of UniProt P36896 (whole entry, looked up): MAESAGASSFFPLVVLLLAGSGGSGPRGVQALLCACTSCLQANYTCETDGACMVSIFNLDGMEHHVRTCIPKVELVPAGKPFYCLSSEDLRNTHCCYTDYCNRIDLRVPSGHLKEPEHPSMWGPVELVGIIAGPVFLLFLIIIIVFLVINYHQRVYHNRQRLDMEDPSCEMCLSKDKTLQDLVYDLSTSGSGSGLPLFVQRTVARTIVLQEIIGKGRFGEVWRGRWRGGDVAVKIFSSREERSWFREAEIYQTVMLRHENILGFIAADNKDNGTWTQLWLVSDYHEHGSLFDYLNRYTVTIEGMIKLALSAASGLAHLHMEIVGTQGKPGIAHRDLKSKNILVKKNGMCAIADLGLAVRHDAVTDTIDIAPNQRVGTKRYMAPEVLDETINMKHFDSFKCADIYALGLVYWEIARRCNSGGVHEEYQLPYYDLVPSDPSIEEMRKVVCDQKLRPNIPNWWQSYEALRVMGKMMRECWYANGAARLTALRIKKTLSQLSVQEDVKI

Series 1
SMILES: CC(=O)N[C@@H](Cc1c[nH]c2ccccc12)C(=O)N[C@@H](CCC(=O)C=[N+]=[N-])C(=O)OC(C)C
Dose: dose not given
Relative to: vehicle
The “log2 fold change” was -0.385 (refers to: C5 acylcarnitine; Mus musculus, EL4 tumour).
The “log2 fold change” was 0.676 (refers to: fructose 1,6-bisphosphate; mouse, EL4 tumour, tumour).
refers to: adenosine; mouse, EL4 tumour-bearing, EL4 tumour — “log2 fold change”: -0.693.
refers to: inosine; mouse, EL4 tumour-bearing, EL4 tumour — “log2 fold change”: 0.0337.
The “log2 fold change” was -0.251 (refers to: 5-oxoproline; mouse, EL4 tumour-bearing, EL4 tumour).
refers to: oxidized glutathione; Mus musculus, EL4 tumour — “log2 fold change”: -0.269.
For refers to: citrate; mouse, EL4 tumour-bearing, EL4 tumour: “log2 fold change” read -0.423.
refers to: dCMP; mouse, EL4 tumour-bearing, EL4 tumour — “log2 fold change”: 0.526.
It gave -1.33 for “log2 fold change” (refers to: UDP-galactose; mouse, EL4 tumour-bearing, EL4 tumour).
It gave 1.09 for “log2 fold change” (refers to: mannose; mouse, EL4 tumour-bearing, EL4 tumour).
refers to: N1-methylinosine; mouse, EL4 tumour-bearing, EL4 tumour — “log2 fold change”: -0.997.
refers to: 1-methyl-4-imidazoleacetate; mouse, EL4 tumour-bearing, EL4 tumour — “log2 fold change”: 0.403.
It gave 0.579 for “log2 fold change” (refers to: equol sulfate; mouse, EL4 tumour-bearing, EL4 tumour).

Series 2
SMILES: C[C@H](c1ccnc(Nc2nc3ccc(-c4cc(N(C)C)ncn4)cc3[nH]2)c1)N1CCN(C(=O)CC(F)(F)F)CC1
Method: competition with immobilised ligand
Concentration: 0.1 µM
The remaining binding was 95% (Homeodomain-interacting protein kinase 1 (HIPK1, Homo sapiens, UniProt Q86Z02); cell-free assay).
Phosphatidylinositol 4,5-bisphosphate 3-kinase catalytic subunit alpha isoform (PIK3CA, Homo sapiens, UniProt P42336, H1047L); cell-free assay — remaining binding: 100%.
Tyrosine-protein kinase ABL1, phosphorylated (ABL1, Homo sapiens, UniProt P00519, M351T); cell-free assay — remaining binding: 100%.
The remaining binding was 99% (Ephrin type-A receptor 1 (EPHA1, Homo sapiens, UniProt P21709); cell-free assay).
SRSF protein kinase 2 (SRPK2, Homo sapiens, UniProt P78362); cell-free assay — remaining binding: 100%.
For Activin receptor type-1B (ACVR1B, Homo sapiens, UniProt P36896); cell-free assay: remaining binding read 94%.
For Receptor-type tyrosine-protein kinase FLT3 (FLT3, Homo sapiens, UniProt P36888, N841I); cell-free assay: remaining binding read 43%.
The remaining binding was 85% (Mitogen-activated protein kinase kinase kinase 7 (MAP3K7, Homo sapiens, UniProt O43318); cell-free assay).
Phosphatidylinositol 4-phosphate 5-kinase type-1 alpha (PIP5K1A, Homo sapiens, UniProt Q99755); cell-free assay — remaining binding: 100%.
The remaining binding was 98% (TGF-beta receptor type-2 (TGFBR2, Homo sapiens, UniProt P37173); cell-free assay).
It gave 100% for remaining binding (Tyrosine-protein kinase ABL1, non-phosphorylated (ABL1, Homo sapiens, UniProt P00519, F317I); binding).
For Serine/threonine-protein kinase LATS2 (LATS2, Homo sapiens, UniProt Q9NRM7); cell-free assay: remaining binding read 80%.
Serine/threonine-protein kinase DCLK3 (DCLK3, Homo sapiens, UniProt Q9C098); cell-free assay — remaining binding: 100%.
The remaining binding was 99% (cAMP-dependent protein kinase catalytic subunit PRKX (PRKX, Homo sapiens, UniProt P51817); cell-free assay).
The remaining binding was 100% (Serine/threonine-protein kinase MRCK beta (CDC42BPB, Homo sapiens, UniProt Q9Y5S2); cell-free assay).
The remaining binding was 95% (NUAK family SNF1-like kinase 2 (NUAK2, Homo sapiens, UniProt Q9H093); cell-free assay).
It gave 85% for remaining binding (Serine/threonine-protein kinase DCLK2 (DCLK2, Homo sapiens, UniProt Q8N568); cell-free assay).
Macrophage-stimulating protein receptor (MST1R, Homo sapiens, UniProt Q04912); cell-free assay — remaining binding: 80%.
It gave 100% for remaining binding (Phosphatidylinositol 3-kinase catalytic subunit type 3 (PIK3C3, Homo sapiens, UniProt Q8NEB9); cell-free assay).
It gave 98% for remaining binding (Fibroblast growth factor receptor 4 (FGFR4, Homo sapiens, UniProt P22455); cell-free assay).
The remaining binding was 10% (Mitogen-activated protein kinase kinase kinase 19 (MAP3K19, Homo sapiens, UniProt Q56UN5); binding).
Serine/threonine-protein kinase TNNI3K (TNNI3K, Homo sapiens, UniProt Q59H18); cell-free assay — remaining binding: 59%.
For SRSF protein kinase 1 (SRPK1, Homo sapiens, UniProt Q96SB4); cell-free assay: remaining binding read 85%.

Series 3
Target: Myosin light chain kinase 2, skeletal/cardiac muscle (MYLK2, Homo sapiens, UniProt Q9H1R3)
Sequence of UniProt Q9H1R3 (whole entry, looked up): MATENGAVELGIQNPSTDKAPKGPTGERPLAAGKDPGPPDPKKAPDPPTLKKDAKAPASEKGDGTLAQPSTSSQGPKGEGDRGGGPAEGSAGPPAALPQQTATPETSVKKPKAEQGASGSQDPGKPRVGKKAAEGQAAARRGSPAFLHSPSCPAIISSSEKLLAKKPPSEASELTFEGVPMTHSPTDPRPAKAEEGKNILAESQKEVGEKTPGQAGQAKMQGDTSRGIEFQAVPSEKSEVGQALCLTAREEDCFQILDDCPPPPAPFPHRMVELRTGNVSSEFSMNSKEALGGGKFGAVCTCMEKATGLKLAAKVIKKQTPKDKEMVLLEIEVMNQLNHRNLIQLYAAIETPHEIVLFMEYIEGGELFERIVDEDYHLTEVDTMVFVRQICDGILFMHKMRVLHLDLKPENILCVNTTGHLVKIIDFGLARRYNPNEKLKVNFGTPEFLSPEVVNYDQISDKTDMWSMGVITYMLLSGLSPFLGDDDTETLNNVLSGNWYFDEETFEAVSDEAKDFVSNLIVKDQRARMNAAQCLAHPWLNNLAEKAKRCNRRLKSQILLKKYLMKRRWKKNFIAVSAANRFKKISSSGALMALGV
Effect on: enzyme activity
Action: inhibitor
Concentration: 0.5 µM
Relative to: control
With `COc1cc2ncnc(Nc3cccc(Cl)c3)c2cc1OC` the remaining activity was 90.1%.
`CCN(CC)CCNC(=O)c1c(C)[nH]c(/C=C2\C(=O)Nc3ccc(F)cc32)c1C` has a remaining activity of 7.74%.
`Cn1nc2c3c(cccc31)C(=O)c1ccccc1-2` has a remaining activity of 78.8%.
The remaining activity of `Ic1cccc(CSc2nnc(-c3ccncc3)o2)c1` is reported as 101%.
`CCN(CC)C(=O)c1ccc(Nc2nc(OCC3CCCCC3)c3[nH]cnc3n2)cc1` gave a remaining activity of 94.7%.
With `CN(C)C[C@H]1CCn2c(c(C3=C(c4cn(C)c5ccccc45)C(=O)NC3=O)c3ccccc32)C1` the remaining activity was 74.2%.
With `O=C(NC(NC(=S)Nc1ccc(F)c([N+](=O)[O-])c1)C(Cl)(Cl)Cl)C(c1ccccc1)c1ccccc1` (centres unmarked) the remaining activity was 104%.
For `CN([C@@H](Cc1ccc(OS(=O)(=O)c2cccc3cnccc23)cc1)C(=O)N1CCN(c2ccccc2)CC1)S(=O)(=O)c1cccc2cnccc12`, the remaining activity was 98.8%.
`Cc1cn(-c2cc(NC(=O)c3ccc(C)c(Nc4nccc(-c5cccnc5)n4)c3)cc(C(F)(F)F)c2)cn1` has a remaining activity of 111%.
The remaining activity of `c1ccc(-c2[nH]ncc2-c2ccnc3ccccc23)nc1` is reported as 98.3%.
With `C[C@@H]1CCN(C(=O)CC#N)C[C@@H]1N(C)c1ncnc2[nH]ccc12` the remaining activity was 99%.
With `c1ccc(-c2cnc(Nc3ccc(OCCN4CCCC4)cc3)s2)cc1` the remaining activity was 28.7%.

Series 4
Target: Calcium/calmodulin-dependent protein kinase type II subunit alpha (CAMK2A, Homo sapiens, UniProt Q9UQM7)
Sequence of UniProt Q9UQM7 (whole entry, looked up): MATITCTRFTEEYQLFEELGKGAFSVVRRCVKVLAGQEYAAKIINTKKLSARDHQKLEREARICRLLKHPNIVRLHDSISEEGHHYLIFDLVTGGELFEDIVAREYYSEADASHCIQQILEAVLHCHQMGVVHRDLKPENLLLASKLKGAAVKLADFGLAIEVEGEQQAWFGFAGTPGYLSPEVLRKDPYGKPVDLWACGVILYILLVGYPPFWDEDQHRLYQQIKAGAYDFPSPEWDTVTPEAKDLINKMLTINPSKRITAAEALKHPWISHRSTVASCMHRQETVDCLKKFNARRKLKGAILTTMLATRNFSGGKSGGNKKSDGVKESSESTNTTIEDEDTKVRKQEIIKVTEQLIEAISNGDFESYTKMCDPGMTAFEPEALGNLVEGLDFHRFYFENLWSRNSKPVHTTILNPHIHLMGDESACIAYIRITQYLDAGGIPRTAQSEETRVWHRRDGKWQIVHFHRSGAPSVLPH
Effect on: enzyme activity
Action: inhibitor
Concentration: 10 µM
The inhibition of `O=Cc1ccoc1` is reported as 6%.
`CCn1cc(C(=O)O)c(=O)c2cc(F)c(N3CCNCC3)nc21` gave an inhibition of -2%.
With `CCCCCCCC/C=C\CCCCCCCC(N)=O` the inhibition was -22%.
The inhibition of `O=c1[nH]c(=O)n([C@H]2C[C@H](O)[C@@H](CO)O2)cc1I` is reported as -10%.
With `C[N+](C)(C)CCCCC(=O)[O-]` the inhibition was -6%.
The inhibition of `CC(=O)OCC(=O)[C@@]12N=C(C)O[C@@H]1C[C@H]1[C@@H]3CCC4=CC(=O)C=C[C@]4(C)[C@H]3[C@@H](O)C[C@@]12C` is reported as -13%.
`O=c1ccc2cc3ccoc3cc2o1` gave an inhibition of 7%.
With `N/C(=N\C(=O)c1nc(Cl)c(N)nc1N)NCc1ccccc1` the inhibition was 2%.
For `CC(CCC(=O)O)CC(=O)O` (centres unmarked), the inhibition was -7%.
For `COc1cc2oc(-c3ccccc3)cc(=O)c2c(O)c1OC`, the inhibition was 9%.
With `O=C(O)C(O)Cc1ccc(O)c(O)c1` (centres unmarked) the inhibition was -18%.

A few entries again (series 4):
The inhibition of `O=Cc1ccoc1` is reported as 6%.
`CCn1cc(C(=O)O)c(=O)c2cc(F)c(N3CCNCC3)nc21` gave an inhibition of -2%.
With `CCCCCCCC/C=C\CCCCCCCC(N)=O` the inhibition was -22%.
The inhibition of `O=c1[nH]c(=O)n([C@H]2C[C@H](O)[C@@H](CO)O2)cc1I` is reported as -10%.
With `C[N+](C)(C)CCCCC(=O)[O-]` the inhibition was -6%.
The inhibition of `CC(=O)OCC(=O)[C@@]12N=C(C)O[C@@H]1C[C@H]1[C@@H]3CCC4=CC(=O)C=C[C@]4(C)[C@H]3[C@@H](O)C[C@@]12C` is reported as -13%.
`O=c1ccc2cc3ccoc3cc2o1` gave an inhibition of 7%.
With `N/C(=N\C(=O)c1nc(Cl)c(N)nc1N)NCc1ccccc1` the inhibition was 2%.
For `CC(CCC(=O)O)CC(=O)O` (centres unmarked), the inhibition was -7%.
